Experimental data of several laboratories.
Parts stem from different laboratories: compare values within a part only.

Sample 1
Target: Histone acetyltransferase KAT6A, both winged helices, GST fusion (KAT6A, Homo sapiens, UniProt Q92794, residues 1-181)
Technique: protein binding microarray
Molecule type: double-stranded DNA, one strand shown
Matrix: in vitro
Tested at: not given
Notes: 8-mer, flanks averaged, mean of 2 arrays, mostly near background
Relative to: not given
Direction: higher = stronger binding
Quantity: E-score
Construct (chain): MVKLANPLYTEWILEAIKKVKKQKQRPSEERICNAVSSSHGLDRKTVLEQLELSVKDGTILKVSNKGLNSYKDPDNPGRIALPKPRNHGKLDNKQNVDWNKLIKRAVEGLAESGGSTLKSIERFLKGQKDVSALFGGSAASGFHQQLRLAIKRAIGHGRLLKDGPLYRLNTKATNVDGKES
CAAAGCAC: -0.108
AGCAGCAT: -0.0747
ATGAAATC: 0.0243
CCGACAAC: 0.136
CTGGTAAC: -0.0105
AGCACCGG: 0.155
ACGCCTAC: 0.0415
GAATGGAA: -0.0662

Sample 2
Target: RNA binding protein fox-1 homolog 2, RRM domain, GST-SBP tag (RBFOX2, Homo sapiens, UniProt O43251-10, residues 100-194)
Technique: RNA Bind-n-Seq
Molecule type: RNA
Matrix: in vitro
Tested at: 365 nM
Notes: natural RNA segment, single round, ends assumed
Relative to: no-protein control
Direction: higher = stronger binding
Quantity: RBNS enrichment (R)
All sequences stand within: GGGAGUUCUACAGUCCGACGAUC … UGGAAUUCUCGGGUGCCAA
Construct (chain): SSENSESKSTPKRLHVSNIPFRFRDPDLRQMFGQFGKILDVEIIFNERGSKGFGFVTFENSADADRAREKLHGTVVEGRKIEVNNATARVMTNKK
AGAACUUAUUUGAGAAGGAAGCUCUCGUUCCACAUUCCUAGCAACUAUAUUCUCAGGCACACAUAGGCGCACAGAGACAGCUUCCUAGUAACUCACAUCAAUUUCGUUUA: 0.584
UCUAAACCUUAGAGGAAGCCAGAAUAUGUGAUCAUACCAGGUGAGGAAAGUUAGGAGAUAUUCAUCUUAAGAGAUAUCCUAUUUGGCAGUCACAUGUUACACUUGAGCAA: 0.245
UAUAAUUCUUUGGUGAAUAGGUAUGCCUAGGAACAACUGGUGGUUAGUCUGUGUCCUGUGUGGAACUGUAAGGAUGGAGCUGCCCCUGAUAGGCUCUGUGGAGUUGGCUU: 0.826
CUCUUCAGUGGGAGAAAACACUUGUAAGUUGCUAAACGAGUCAAUCCCCUCAUUCAGGAAAACUGACAGAGGAGGGCGUGACUCACCCAAGCAUAUAUAACUAGCUAGAA: 0.297
AGUUCCCAUAAAACCUUCAUUACACAUAAAGAUACACGUGGGGGUCAGUGAAUCUGCUUGCCUUUCCUGAAAGUUUCUGGGGCUUAAGAUUCCAGACUCUGAUUCAUUAA: 0.27

Sample 3
Target: Interferon regulatory factor 5, full length, phosphomimetic (IRF5, Homo sapiens, UniProt Q13568-2, residues 1-514, K96S/S451D/S453D/S456D/S462D)
Technique: protein-binding microarray
Molecule type: double-stranded DNA, one strand shown
Matrix: in vitro
Tested at: 250 nM
Notes: 60-bp whole probe
With: salmon DNA 0.4 mg/ml
Relative to: random background probes
Direction: higher = stronger binding
Quantity: log fluorescence
All sequences stand within: GCCTAGCAC … GTGCTAGGTCTTGATTCGCTTGACGCTGCTG
TCAAGGTCCCTTTTCATACT: 0.217 z-score
GACGGTTTACTTTCCCTGAC: 1.25 z-score
TCCCCTCTCTTTCCAACTCT: 0.282 z-score
GACTGTCTCCTTCTCCTGAC: 0.0496 z-score
GGAGGAGCGGGACTGCCACC: -0.911 z-score

Single results of other studies
PhoQ, residues 284 288 289 292 302 303 ALAMYF
fold induction (PhoP, residues 12 14 15 18 19 VGHWL (Escherichia coli, UniProt P23836); Sort-seq, measured: YFP reporter; E. coli; PhoQ-PhoP variant library, with: 10 µM Mg2+; relative to: high Mg2+ state, higher = stronger signaling): 1.76

Repeated from above (sample 1):
GAATGGAA: -0.0662
